Published values of several laboratories.
Numbered parts are unrelated; each lists some results of a single study. Substitutions count along the parent as printed.

Series 1 — technique: aptamer microarray, sandwich; form: DNA with 2'F-ANA; matrix: in vitro; concentration: 200 nM; added: Cy3 exosite-II aptamer, 400 nM; direction: higher = stronger binding; sequence: GGTTGGTGTGGTTGG
Target: Prothrombin, mature alpha-thrombin (F2, Homo sapiens, UniProt P00734)
Notes: whole 15-mer aptamer, many near background
Under “mean fluorescence intensity”, `2'F-ANA at 1 2 5 8 12 13 14 15` is recorded as 88.5 a.u.
Under “mean fluorescence intensity”, `2'F-ANA at 3 6 7 8 11 12 13` is recorded as 1300 a.u.
`2'F-ANA at 2 3 4 5 6 7 8 11 14 15` — result for “mean fluorescence intensity”: 49.5 a.u.
For `2'F-ANA at 1 3 5 9 10 12 13 14`, “mean fluorescence intensity” read 49.3 a.u.
For `2'F-ANA at 2 5 7 9 11 13 14 15`, “mean fluorescence intensity” read 48.5 a.u.
Under “mean fluorescence intensity”, `2'F-ANA at 1 2 4 6 7 12 14` is recorded as 57.6 a.u.
Under “mean fluorescence intensity”, `2'F-ANA at 1 4 6 8 10 13 14 15` is recorded as 49.7 a.u.
For `2'F-ANA at 1 2 3 7 8 12 13 14`, “mean fluorescence intensity” read 103 a.u.
`2'F-ANA at 1 3 8 14 15`: “mean fluorescence intensity” 109 a.u.
Under “mean fluorescence intensity”, `2'F-ANA at 1 2 3 5 6 7 9 10 11 12 13 14` is recorded as 175 a.u.
For `2'F-ANA at 2 3 4 5 6 10 12 13`, “mean fluorescence intensity” read 56.4 a.u.
`2'F-ANA at 2 4 5 6 8 9 10 12 13` — result for “mean fluorescence intensity”: 50.6 a.u.
`2'F-ANA at 2 4 8 11 13` — result for “mean fluorescence intensity”: 216 a.u.

Series 2 — technique: universal PBM; form: double-stranded DNA, one strand shown; matrix: in vitro; concentration: not given; direction: higher = stronger binding
Target: Sal-like protein 4, full length isoform B (SALL4, Homo sapiens, UniProt Q9UJQ4-2, residues 1-616)
Notes: 8-mer, flanks averaged, mean of replicates
With `CCCCGTGC` the E-score was -0.322.
For `ATTTTTGA`, the E-score was 0.226.
For `AGTATTAC`, the E-score was 0.285.
`CTTTGCAA` gave an E-score of 0.0184.
The E-score of `GGTATCCA` is reported as -0.0205.
`ATGTTCAC` gave an E-score of 0.119.
For `AAATGGAG`, the E-score was 0.0781.
For `ACCGCTAA`, the E-score was 0.116.
For `AATCGCTC`, the E-score was -0.13.
The E-score of `TAAGTACA` is reported as 0.281.
`ATCCTTTC` has an E-score of 0.196.
For `ATAGTGCC`, the E-score was -0.0326.
`GAGAAGAA` gave an E-score of 0.0497.
The E-score of `CAAATTTC` is reported as 0.222.
For `AGGACGAT`, the E-score was 0.00642.
For `ACCTTCAT`, the E-score was 0.0107.
The E-score of `AAGACCGT` is reported as -0.107.
`ACGTTCCA` gave an E-score of -0.00994.
For `CCGGTCGC`, the E-score was -0.312.

Series 3 — target: CCNB2, cyclin fold, Cln2 fusion (human); technique: yeast growth competition, sequencing; matrix: yeast; notes: weak parent motif; reference: not given; direction: higher = stronger binding
Starting sequence: SCAPER docking peptide (human); SNARRSLNFGGST; partner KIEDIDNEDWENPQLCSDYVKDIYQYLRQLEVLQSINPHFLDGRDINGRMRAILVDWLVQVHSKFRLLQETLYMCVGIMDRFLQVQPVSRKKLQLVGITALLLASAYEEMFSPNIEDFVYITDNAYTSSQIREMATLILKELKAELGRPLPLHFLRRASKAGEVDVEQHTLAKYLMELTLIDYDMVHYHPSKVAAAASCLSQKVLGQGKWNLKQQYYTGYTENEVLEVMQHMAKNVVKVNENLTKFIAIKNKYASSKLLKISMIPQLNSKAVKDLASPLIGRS
For `S6W`, “normalised enrichment score” read 0.371.
Under “normalised enrichment score”, `S12K` is recorded as 0.414.
Under “normalised enrichment score”, `R4T` is recorded as 0.19.
`T13K`: “normalised enrichment score” 0.337.
Under “normalised enrichment score”, `S1M` is recorded as 0.316.
`S12F` — result for “normalised enrichment score”: 0.249.
`G10S` — result for “normalised enrichment score”: -0.187.
`L7E`: “normalised enrichment score” 0.134.
Under “normalised enrichment score”, `R5H` is recorded as 0.34.
For `G11P`, “normalised enrichment score” read -0.0889.
`R5E`: “normalised enrichment score” -0.0184.
For `G11E`, “normalised enrichment score” read -0.471.
For `A3D`, “normalised enrichment score” read -0.101.
Under “normalised enrichment score”, `R4Y` is recorded as -0.219.
`L7Q` — result for “normalised enrichment score”: 0.723.
`G11R`: “normalised enrichment score” -0.473.
`A3K`: “normalised enrichment score” 0.265.
For `N8A`, “normalised enrichment score” read -0.00825.
`S6P`: “normalised enrichment score” 0.347.

Mixed results
The fold induction of `PhoQ, residues 284 288 289 292 302 303 AGGCYF` is reported as 9.77 (PhoP, residues 12 14 15 18 19 LFHKL (Escherichia coli, UniProt P23836); Sort-seq, measured: YFP reporter; E. coli; PhoQ-PhoP variant library, added: 10 µM Mg2+; reference: high Mg2+ state, higher = stronger signaling).
